Published values from different studies.
Protocols differ between the studies behind these lines. ± marks the error that the study gave.
HDAC6: Protein deacetylase HDAC6 (HDAC6, Homo sapiens, UniProt Q9UBN7)
MAPK8: Mitogen-activated protein kinase 8 (MAPK8, Homo sapiens, UniProt P45983)
lasR: Transcriptional activator protein LasR (lasR, Pseudomonas aeruginosa, UniProt P25084)
Orco: Orco (Drosophila melanogaster, UniProt Q9VNB5)

Chains of the proteins cited; added tags and fusions are not shown. Residues count along the entry.
UniProt Q9UBN7, whole entry: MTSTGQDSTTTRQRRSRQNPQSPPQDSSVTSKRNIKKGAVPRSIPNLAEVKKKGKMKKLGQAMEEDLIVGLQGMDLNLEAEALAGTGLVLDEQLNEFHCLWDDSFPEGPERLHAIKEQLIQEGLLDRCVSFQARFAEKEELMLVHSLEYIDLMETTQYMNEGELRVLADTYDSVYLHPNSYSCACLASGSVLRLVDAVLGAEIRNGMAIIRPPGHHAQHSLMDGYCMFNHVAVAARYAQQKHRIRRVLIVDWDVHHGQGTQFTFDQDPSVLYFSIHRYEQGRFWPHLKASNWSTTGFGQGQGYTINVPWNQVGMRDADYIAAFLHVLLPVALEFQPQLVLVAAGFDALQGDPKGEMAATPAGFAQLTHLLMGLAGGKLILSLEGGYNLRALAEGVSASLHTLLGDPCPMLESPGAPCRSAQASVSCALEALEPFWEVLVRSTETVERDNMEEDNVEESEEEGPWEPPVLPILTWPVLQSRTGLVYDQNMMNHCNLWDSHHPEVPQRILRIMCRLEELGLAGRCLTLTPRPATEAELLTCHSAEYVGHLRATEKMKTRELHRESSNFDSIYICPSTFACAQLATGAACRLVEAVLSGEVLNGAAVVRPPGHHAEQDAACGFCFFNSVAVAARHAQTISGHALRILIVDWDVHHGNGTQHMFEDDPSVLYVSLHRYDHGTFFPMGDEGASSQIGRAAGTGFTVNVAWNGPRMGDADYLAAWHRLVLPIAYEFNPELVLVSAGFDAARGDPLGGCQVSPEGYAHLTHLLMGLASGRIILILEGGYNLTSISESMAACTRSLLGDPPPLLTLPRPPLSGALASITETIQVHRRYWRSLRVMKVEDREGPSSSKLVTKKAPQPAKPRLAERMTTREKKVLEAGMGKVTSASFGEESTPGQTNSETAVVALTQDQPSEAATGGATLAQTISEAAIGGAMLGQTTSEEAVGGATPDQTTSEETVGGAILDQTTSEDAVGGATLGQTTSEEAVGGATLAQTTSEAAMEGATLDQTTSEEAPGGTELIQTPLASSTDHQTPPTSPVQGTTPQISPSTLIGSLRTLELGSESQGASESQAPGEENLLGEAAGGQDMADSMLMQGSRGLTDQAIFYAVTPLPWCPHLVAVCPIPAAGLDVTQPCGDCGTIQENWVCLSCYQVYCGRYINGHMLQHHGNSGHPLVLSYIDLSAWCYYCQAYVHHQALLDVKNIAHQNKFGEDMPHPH
UniProt P45983, 1-384 isoform 3: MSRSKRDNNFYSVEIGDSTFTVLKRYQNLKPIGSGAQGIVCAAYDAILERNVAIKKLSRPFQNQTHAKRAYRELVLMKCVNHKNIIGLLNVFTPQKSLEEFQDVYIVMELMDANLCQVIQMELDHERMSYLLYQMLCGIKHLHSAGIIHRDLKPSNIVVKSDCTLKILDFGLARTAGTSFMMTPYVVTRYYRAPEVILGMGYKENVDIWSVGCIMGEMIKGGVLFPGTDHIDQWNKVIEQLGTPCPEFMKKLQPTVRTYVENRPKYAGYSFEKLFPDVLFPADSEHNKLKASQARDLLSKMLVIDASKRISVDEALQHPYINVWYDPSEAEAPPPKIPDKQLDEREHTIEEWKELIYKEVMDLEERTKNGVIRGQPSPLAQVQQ
UniProt P25084, whole entry: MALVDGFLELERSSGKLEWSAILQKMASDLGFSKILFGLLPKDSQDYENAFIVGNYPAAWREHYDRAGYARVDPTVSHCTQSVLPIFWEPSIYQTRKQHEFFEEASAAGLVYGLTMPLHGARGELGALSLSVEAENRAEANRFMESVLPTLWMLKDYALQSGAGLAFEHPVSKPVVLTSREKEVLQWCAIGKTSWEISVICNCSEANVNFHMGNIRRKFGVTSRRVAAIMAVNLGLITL
UniProt P25084, 1-173 limits assumed: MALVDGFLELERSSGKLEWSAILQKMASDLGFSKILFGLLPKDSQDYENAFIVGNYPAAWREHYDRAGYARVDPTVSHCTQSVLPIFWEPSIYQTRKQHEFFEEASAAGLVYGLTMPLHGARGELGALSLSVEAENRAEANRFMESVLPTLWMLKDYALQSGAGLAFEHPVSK
UniProt Q9VNB5, whole entry: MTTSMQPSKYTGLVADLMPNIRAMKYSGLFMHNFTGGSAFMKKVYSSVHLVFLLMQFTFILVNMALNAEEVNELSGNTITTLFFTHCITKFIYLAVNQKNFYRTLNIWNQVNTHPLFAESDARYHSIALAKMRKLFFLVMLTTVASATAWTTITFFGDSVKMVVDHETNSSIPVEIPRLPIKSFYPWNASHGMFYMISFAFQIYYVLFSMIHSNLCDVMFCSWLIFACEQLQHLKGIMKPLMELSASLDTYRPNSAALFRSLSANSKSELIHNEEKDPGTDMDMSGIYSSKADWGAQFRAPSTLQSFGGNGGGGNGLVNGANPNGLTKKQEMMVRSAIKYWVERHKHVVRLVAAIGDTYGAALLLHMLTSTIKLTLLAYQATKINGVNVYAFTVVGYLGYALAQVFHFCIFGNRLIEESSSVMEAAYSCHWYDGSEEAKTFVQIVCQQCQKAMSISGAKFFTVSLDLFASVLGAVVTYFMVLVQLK
UniProt Q76LL8, 24-415 limits assumed: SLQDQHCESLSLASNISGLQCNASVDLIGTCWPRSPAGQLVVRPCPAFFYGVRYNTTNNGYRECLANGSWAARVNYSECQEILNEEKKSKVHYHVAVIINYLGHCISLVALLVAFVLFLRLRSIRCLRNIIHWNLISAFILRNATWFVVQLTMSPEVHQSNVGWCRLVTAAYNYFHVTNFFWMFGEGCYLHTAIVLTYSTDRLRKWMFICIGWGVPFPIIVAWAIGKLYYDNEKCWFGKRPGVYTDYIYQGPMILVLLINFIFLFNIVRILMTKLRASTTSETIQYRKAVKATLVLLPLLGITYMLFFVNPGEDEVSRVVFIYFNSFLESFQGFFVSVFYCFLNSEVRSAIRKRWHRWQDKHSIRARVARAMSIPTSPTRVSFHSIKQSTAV
UniProt P17787, 26-502 limits assumed: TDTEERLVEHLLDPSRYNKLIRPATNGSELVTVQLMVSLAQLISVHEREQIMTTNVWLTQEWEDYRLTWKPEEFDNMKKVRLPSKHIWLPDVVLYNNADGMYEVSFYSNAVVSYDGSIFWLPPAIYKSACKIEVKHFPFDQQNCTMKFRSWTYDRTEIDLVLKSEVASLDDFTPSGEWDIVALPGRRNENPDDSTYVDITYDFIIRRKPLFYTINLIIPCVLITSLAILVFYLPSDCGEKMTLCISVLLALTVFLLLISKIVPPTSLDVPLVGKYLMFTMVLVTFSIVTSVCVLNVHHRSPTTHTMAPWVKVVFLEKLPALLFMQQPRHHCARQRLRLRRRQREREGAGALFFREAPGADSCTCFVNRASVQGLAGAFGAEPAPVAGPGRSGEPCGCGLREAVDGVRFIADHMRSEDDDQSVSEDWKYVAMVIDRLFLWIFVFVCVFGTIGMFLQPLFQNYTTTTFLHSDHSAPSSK
UniProt P43681, 29-627 limits assumed: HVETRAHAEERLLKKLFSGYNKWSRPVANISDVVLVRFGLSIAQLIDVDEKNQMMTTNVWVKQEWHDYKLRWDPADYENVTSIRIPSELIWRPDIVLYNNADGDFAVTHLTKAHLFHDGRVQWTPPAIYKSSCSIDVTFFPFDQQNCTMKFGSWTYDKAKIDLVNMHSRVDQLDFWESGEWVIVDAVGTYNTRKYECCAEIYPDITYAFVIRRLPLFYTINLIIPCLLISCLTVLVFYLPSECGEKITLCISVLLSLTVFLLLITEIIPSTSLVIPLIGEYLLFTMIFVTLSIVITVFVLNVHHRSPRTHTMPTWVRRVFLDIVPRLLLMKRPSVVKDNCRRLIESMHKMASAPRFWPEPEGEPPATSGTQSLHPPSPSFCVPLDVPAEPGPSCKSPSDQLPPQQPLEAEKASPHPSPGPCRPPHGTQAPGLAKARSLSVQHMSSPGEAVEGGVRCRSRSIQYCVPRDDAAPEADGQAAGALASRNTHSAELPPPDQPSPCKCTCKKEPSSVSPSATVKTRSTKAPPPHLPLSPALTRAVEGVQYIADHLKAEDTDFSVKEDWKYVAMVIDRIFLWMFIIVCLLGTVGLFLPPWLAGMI
UniProt P51452, 28-179 limits assumed: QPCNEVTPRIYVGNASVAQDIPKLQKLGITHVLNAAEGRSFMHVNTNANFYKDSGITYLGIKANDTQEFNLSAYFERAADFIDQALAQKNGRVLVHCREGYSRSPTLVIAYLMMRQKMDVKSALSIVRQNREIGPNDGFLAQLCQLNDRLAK
UniProt Q05769, 18-604 R106Q limits assumed: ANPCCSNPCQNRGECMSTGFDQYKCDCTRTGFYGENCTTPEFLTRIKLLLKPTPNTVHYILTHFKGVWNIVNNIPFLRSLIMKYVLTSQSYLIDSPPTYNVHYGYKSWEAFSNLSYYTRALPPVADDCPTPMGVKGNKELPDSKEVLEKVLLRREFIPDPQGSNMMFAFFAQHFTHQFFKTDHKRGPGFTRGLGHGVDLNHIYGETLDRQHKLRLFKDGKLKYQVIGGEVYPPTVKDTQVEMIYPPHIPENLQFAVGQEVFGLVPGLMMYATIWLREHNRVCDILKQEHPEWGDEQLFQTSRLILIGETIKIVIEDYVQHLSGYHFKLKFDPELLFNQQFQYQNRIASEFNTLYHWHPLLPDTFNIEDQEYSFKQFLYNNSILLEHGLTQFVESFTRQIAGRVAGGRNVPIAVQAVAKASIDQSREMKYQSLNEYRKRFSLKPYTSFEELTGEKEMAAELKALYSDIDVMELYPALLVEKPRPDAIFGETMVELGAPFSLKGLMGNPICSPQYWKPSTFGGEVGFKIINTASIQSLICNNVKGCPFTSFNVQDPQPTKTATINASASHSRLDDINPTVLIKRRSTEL
UniProt C7C422, 36-270 M154L/A233V limits assumed: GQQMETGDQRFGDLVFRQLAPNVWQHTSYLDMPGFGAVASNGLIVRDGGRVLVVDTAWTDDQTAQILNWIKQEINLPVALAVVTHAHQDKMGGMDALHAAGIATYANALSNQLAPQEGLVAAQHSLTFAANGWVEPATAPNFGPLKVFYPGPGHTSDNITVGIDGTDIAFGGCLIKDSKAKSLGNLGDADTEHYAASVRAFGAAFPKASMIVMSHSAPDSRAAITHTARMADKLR
UniProt P27958, 2421-3011 limits assumed: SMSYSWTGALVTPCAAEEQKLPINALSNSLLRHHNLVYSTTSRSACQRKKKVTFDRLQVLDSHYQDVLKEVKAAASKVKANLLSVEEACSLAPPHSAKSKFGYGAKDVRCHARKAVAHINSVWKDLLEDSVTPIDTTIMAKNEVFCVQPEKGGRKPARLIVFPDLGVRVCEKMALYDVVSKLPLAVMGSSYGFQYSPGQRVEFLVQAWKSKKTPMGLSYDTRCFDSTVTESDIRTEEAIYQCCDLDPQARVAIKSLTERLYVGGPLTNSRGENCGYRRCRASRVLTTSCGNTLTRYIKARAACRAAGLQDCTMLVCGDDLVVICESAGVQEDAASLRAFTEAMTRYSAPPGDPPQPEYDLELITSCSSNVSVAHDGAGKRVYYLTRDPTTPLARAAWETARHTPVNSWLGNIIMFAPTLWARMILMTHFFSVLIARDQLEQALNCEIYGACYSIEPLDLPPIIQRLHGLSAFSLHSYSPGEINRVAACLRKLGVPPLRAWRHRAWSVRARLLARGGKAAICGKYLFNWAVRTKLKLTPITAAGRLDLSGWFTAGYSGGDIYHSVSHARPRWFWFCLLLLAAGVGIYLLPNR
UniProt P28472, whole entry, looked up: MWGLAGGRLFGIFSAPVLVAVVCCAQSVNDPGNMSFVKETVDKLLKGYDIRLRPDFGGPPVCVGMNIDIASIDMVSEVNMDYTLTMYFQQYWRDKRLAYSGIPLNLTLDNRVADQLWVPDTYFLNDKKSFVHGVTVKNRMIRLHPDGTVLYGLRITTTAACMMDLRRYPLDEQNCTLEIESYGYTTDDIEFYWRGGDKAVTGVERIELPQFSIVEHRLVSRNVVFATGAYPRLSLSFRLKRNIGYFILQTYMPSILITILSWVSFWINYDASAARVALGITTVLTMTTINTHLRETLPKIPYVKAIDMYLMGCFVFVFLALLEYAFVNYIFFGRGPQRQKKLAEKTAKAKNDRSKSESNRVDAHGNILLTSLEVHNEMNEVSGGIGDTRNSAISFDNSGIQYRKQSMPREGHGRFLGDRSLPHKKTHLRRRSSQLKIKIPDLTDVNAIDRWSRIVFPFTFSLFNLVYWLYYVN
UniProt P21554, whole entry: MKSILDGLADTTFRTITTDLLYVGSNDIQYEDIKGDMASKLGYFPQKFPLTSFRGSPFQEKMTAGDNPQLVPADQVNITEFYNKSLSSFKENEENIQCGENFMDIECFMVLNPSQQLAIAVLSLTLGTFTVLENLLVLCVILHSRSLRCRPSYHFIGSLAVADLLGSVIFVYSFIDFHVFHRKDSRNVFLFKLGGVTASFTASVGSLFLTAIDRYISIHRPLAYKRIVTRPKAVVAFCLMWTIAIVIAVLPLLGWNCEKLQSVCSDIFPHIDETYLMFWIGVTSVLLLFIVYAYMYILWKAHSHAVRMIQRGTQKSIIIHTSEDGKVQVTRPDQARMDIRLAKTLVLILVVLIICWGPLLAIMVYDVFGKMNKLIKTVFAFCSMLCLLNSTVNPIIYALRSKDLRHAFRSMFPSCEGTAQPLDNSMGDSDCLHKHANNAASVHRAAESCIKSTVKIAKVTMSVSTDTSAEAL

Structure (SMILES) | target | assay | test system | setting | how to read | quantity | value
COCCN(CCOC)c1nc(C)nc2c(-c3c(OC)cc([76Br])cc3OC)c(C)nn12 | Corticotropin-releasing factor receptor 1 (Macaca mulatta, UniProt Q76LL8) | in vitro autoradiography | rhesus prefrontal cortex laminae | concentration not given |  | specific binding | ~80%
Nc1nnc(SSc2nnc(N)s2)s1 | Peptide deformylase (def, Escherichia coli, UniProt P0A6K3) | binding |  |  |  | isomerization share of ΔG | > 40%
CC(=O)NCCCC[C@H](NC(C)=O)C(N)=O | HDAC6 | deacetylation, substrate |  | 25 °C, added: 10 to 50 nM enzyme |  | kcat | 0.123 ± 0.018 s⁻¹
O=C(O)c1ccc(-c2cccc(C(=O)O)c2)cc1 | Beta-lactamase OXA-58 (OXA-58, Acinetobacter baumannii, UniProt Q2TR58) | enzyme activity, inhibitor |  |  |  | ligand efficiency | 0.33
COc1ccc(CN[C@@H]2CO[C@H](C(c3ccccc3)c3ccccc3)C[C@H]2O)cc1 | Mu-type opioid receptor (OPRM1, Homo sapiens, UniProt P35372) | radioligand binding |  | 10 µM, added: [3H]diprenorphine |  | inhibition | 48.8%
COC(=O)[C@@]1(C)C=C(C(=O)Nc2ccc(C)c(C(=O)Nc3ccc(Nc4nccc(-c5cccnc5)n4)cc3)c2)C(=O)CC1 | MAPK8 | kinase activity, inhibitor |  | 0.5487 µM, unit not given, added: 10 mM GSH | relative to: DMSO | remaining activity | 0.0943
O=C(OCC1CCCN(C(=O)CCc2ccccc2)C1)c1ccccc1-c1ccccc1 (stereo not drawn) | Neuronal acetylcholine receptor; alpha4/beta2 (Homo sapiens, UniProt P17787+P43681) |  |  |  |  | Hill coefficient | -0.9
COc1ccc(C(=O)Oc2c(Br)cc(Br)cc2CNC(=O)c2ccccc2[N+](=O)[O-])cc1 | lasR | reporter gene, agonist | Escherichia coli JLD271 lasI-lacZ reporter |  | relative to: OdDHL | maximum efficacy | 105%
CC(=O)N[C@@H](Cc1c[nH]cn1)C(=O)N[C@H](C(=O)NCC(=O)N[C@@H](Cc1ccccc1)C(=O)N[C@@H](CC(C)C)C(=O)N[C@H](C(=O)N[C@@H](CCC(=O)O)C(=O)N[C@@H](Cc1cc(=O)oc2cc(OP(=O)(O)O)ccc12)C(=O)N[C@H](C(=O)N[C@@H](C)C(=O)N[C@H](C(=O)N[C@@H](CCCNC(=N)N)C(=O)N[C@@H](Cc1c[nH]c2ccccc12)C(N)=O)[C@@H](C)O)C(C)C)[C@@H](C)O)[C@@H](C)O | Dual specificity protein phosphatase 3 (DUSP3, Homo sapiens, UniProt P51452) | substrate |  | pH 6, ERK1/2 activation-loop peptide |  | kcat/Km | 5880 M⁻¹ s⁻¹
CC(=O)NCCCC[C@H](NC(C)=O)C(=O)N[C@@H](Cc1c[nH]c2ccccc12)C(N)=O | HDAC6 | deacetylation, substrate |  | 25 °C, added: 10 to 50 nM enzyme |  | kcat | 0.19 ± 0.02 s⁻¹
C#CCN1CC[C@]23c4c5ccc(O)c4O[C@H]2[C@H](NC(=O)c2ccc(N=[N+]=[N-])c([125I])c2)CC[C@@]3(O)[C@H]1C5 | Mu-type opioid receptor (Oprm1, Mus musculus, UniProt P42866) | binding | CHO cell membranes | 0.1 nM, 25 °C |  | fast dissociation half-life | 5.2 min
COc1ccc2c(c1)c(CC(=O)NCCCCNC(=O)CCC(=O)OC1c3cc4c(cc3C(c3cc(OC)c(OC)c(OC)c3)C3C(=O)OCC13)OCO4)c(C)n2C(=O)c1ccc(Cl)cc1 (stereo not drawn) | Prostaglandin G/H synthase 2 (Ptgs2, Mus musculus, UniProt Q05769, R106Q) | enzyme activity, inhibitor |  |  | relative to: mutant R120Q over wild type | potency increase | 3 fold
CC(C)[C@H](NC(=O)[C@H](CC(=O)O)NC(=O)[C@H](CCCNC(=N)N)NC(=O)[C@H](CCCNC(=N)N)NC(=O)[C@H](CCCCN)NC(=O)[C@H](CCCNC(=N)N)NC(=O)[C@H](CCCNC(=N)N)NC(=O)[C@H](CO)NC(=O)c1ccccc1N)C(=O)N[C@H](C(=O)N1CCC[C@H]1C(=O)N[C@@H](CCC(N)=O)C(=O)NCCNc1ccc([N+](=O)[O-])cc1[N+](=O)[O-])[C@@H](C)O | Furin (FURIN, Homo sapiens, UniProt P09958) | substrate |  | pH 7 |  | Km | 0.15 µM
Nc1cc(S(=O)(=O)O)cc2cc(S(=O)(=O)O)cc(O)c12 | Beta-lactamase OXA-48 (OXA-48, Klebsiella pneumoniae, UniProt Q6XEC0) | enzyme activity |  |  |  | ligand efficiency | 0.34
COC(=O)[C@@H](CS)N1C(=O)c2ccc(N(C)C)cc2C1=O | Metallo-beta-lactamase type 2 (blaNDM-1, Klebsiella pneumoniae, UniProt C7C422, A233V/M154L) | probe |  | 10 µM, NDM-15 variant, probe:enzyme 1:3, added: ZnSO4 50 µM | relative to: probe alone | fluorescence increase | 17.8 fold
CCCc1ccc(NC(=O)CSc2nnc(-c3cccnc3)n2CC)cc1 | Orco | calcium mobilization, agonist | HEK293 expressing Drosophila Orco |  | relative to: VUAA1 | efficacy | 57%
O=c1ccn([C@@H]2O[C@H](COP(=O)(O)OP(=O)(O)OP(=O)(O)O)[C@@H](O)[C@]2(F)Br)c(=O)[nH]1 | Genome polyprotein, NS5B polymerase (Hepatitis C virus genotype 1a, UniProt P27958) | polymerase activity | genotype 1a |  | relative to: genotype 1b | IC50 fold change | 0.59
COc1ccccc1C(=O)Oc1c(Br)cc(Br)cc1CNC(=O)c1ccccc1[N+](=O)[O-] | lasR | reporter gene, agonist | Escherichia coli JLD271 lasI-lacZ reporter |  | relative to: OdDHL | maximum efficacy | 94%
COC(=O)[C@@]1(C)C=C(C(=O)Nc2cc(C(=O)Nc3ccc(Nc4nccc(-c5cccnc5)n4)cc3)ccc2C)C(=O)CC1 | MAPK8 | kinase activity, inhibitor |  | 0.06097 µM, unit not given, added: 10 mM GSH | relative to: DMSO | remaining activity | 0.247
O=C(NCc1cc(Br)cc(Br)c1OC(=O)c1ccccc1[N+](=O)[O-])c1ccccc1[N+](=O)[O-] | lasR | thermal stability, differential scanning fluorimetry |  |  |  | melting temperature | 69.3 ± 0.3 °C
COc1ccc(OCC2c3cc(OC(C)C)ccc3CCN2C(=O)c2cccc(Cl)c2)cc1 (racemic) | Glutamate receptor ionotropic, kainate 2, concanavalin A-treated (Grik2, Rattus norvegicus, UniProt P42260) | kainate-activated current | HEK cells | concentration not given |  | effect on receptor activity | no effect
CC(=O)Oc1c(Br)cc(Br)cc1CNC(=O)c1ccccc1[N+](=O)[O-] | lasR | reporter gene, agonist | Escherichia coli JLD271 lasI-lacZ reporter |  | relative to: OdDHL | maximum efficacy | 96%
C[C@@H]1CN(C)CCN1c1nc(-c2ccc(F)cc2)cs1 | Sodium-dependent serotonin transporter (SLC6A4, Homo sapiens, UniProt P31645) | 5-HT-induced current, whole-cell patch clamp |  | half-maximal inhibitory concentration |  | binding equilibration half-time | < 7 min
CC1(C)SCN(C(=O)[C@@H](O)[C@H](Cc2ccccc2)NC(=O)COc2ccccc2)[C@@H]1C(=O)N[C@H]1c2ccccc2C[C@H]1O | Gag-Pol polyprotein, protease (gag-pol, Human immunodeficiency virus type 1 group M subtype B, UniProt P04585, L521I/L551I/Q495K) | isothermal titration calorimetry |  | concentration not given, pH 5.0, 25 °C, 2% DMSO |  | ΔH of binding | -18.8 ± 0.761 kJ/mol
O=C1NC(=O)C2(Cc3ccccc32)N1 (racemic) | GABA-A receptor alpha-1/beta-3, with gamma-2 subunit (GABRA1/GABRB3, Homo sapiens, UniProt P14867+P28472) |  |  | alpha1beta3gamma2 receptor |  | maximal inhibition | 66%
CC(C)c1ccc(NC(=O)CSc2nnc(-c3ccncc3)n2C2CCCC2)cc1 | Orco | calcium mobilization, agonist | HEK293 expressing Drosophila Orco |  | relative to: VUAA1 | efficacy | 13%
O=C(NC1CCN(c2ncnc3c2nc(-c2ccccc2Cl)n3-c2ccc(Cl)cc2)CC1)C1CCCC1 | Cannabinoid receptor 1 (CNR1, Homo sapiens, UniProt P21554) | calcium mobilization, antagonist, FLIPR | CHO-K1 with Gαq16 | added: CP55940 |  | Ke | 0.9 nM

Repeated from above:
Structure (SMILES) | target | assay | test system | setting | how to read | quantity | value
COc1ccc(CN[C@@H]2CO[C@H](C(c3ccccc3)c3ccccc3)C[C@H]2O)cc1 | Mu-type opioid receptor (OPRM1, Homo sapiens, UniProt P35372) | radioligand binding |  | 10 µM, added: [3H]diprenorphine |  | inhibition | 48.8%
C[C@@H]1CN(C)CCN1c1nc(-c2ccc(F)cc2)cs1 | Sodium-dependent serotonin transporter (SLC6A4, Homo sapiens, UniProt P31645) | 5-HT-induced current, whole-cell patch clamp |  | half-maximal inhibitory concentration |  | binding equilibration half-time | < 7 min
